Published values collected from several papers.
Each numbered part is a random draw from the data of one study; scales do not carry over between parts.

Series 1 — technique: protein binding microarray; form: double-stranded DNA, one strand shown; sample: in vitro; concentration: not given; reference: not given; reading: higher = stronger binding
Target: Histone acetyltransferase KAT6A, both winged helices, GST fusion (KAT6A, Homo sapiens, UniProt Q92794, residues 1-181)
Notes: 8-mer, flanks averaged, mean of 2 arrays, mostly near background
Construct (chain): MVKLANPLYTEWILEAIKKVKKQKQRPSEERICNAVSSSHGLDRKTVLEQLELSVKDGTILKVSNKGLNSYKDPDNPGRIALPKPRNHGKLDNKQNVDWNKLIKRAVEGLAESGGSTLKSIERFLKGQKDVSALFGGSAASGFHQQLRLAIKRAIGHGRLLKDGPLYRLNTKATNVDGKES
`CACAAGCA` gave an E-score of -0.178.
The E-score of `ATTAGCGA` is reported as 0.094.
With `GAACAGAA` the E-score was 0.0138.
`ACGACTCA` has an E-score of -0.168.
With `CATGGGGG` the E-score was -0.255.
`AATGACGA` has an E-score of -0.163.
With `AGCAGGCT` the E-score was -0.121.
With `AAGCCTGT` the E-score was -0.00966.

Series 2 — technique: universal PBM; form: double-stranded DNA, one strand shown; sample: in vitro; concentration: not given; reading: higher = stronger binding
Target: Sal-like protein 4, full length isoform B (SALL4, Homo sapiens, UniProt Q9UJQ4-2, residues 1-616)
Notes: 8-mer, flanks averaged, mean of replicates
Residues (chain): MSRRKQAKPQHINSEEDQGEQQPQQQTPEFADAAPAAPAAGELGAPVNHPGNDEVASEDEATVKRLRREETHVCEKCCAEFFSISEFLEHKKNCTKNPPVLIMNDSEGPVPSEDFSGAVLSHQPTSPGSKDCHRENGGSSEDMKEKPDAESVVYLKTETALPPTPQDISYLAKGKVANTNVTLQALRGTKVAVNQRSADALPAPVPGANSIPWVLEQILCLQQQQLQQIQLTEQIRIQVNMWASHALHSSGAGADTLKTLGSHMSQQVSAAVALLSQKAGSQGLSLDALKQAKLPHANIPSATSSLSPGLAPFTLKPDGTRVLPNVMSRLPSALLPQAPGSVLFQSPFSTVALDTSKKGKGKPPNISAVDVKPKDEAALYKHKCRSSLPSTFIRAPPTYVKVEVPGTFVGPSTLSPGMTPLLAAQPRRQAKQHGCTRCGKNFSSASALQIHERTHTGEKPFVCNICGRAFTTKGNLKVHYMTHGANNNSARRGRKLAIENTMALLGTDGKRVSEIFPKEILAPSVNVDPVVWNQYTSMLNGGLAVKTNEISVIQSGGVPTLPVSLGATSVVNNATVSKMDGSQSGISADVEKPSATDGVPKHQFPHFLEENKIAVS
For `CCCCCCAG`, the E-score was -0.383.
For `CACATAAA`, the E-score was 0.332.
The E-score of `CTCTAAAA` is reported as 0.0815.
`TCGTATAA` gave an E-score of 0.291.
For `ACACGCCC`, the E-score was -0.17.
`GCGTTCAA` gave an E-score of 0.064.
For `AACGGGTC`, the E-score was -0.231.

Series 3 — technique: aptamer microarray, sandwich; form: DNA with 2'F-ANA; sample: in vitro; concentration: 200 nM; with: Cy3 exosite-II aptamer, 400 nM; reading: higher = stronger binding; oligonucleotide: GGTTGGTGTGGTTGG
Target: Prothrombin, mature alpha-thrombin (F2, Homo sapiens, UniProt P00734)
Notes: whole 15-mer aptamer, many near background
`2'F-ANA at 3 4 5 6 7 8 9 12 15` — result for “mean fluorescence intensity”: 211 a.u.
Under “mean fluorescence intensity”, `2'F-ANA at 3 4 6 8 10 12` is recorded as 297 a.u.
`2'F-ANA at 1 2 5 8 12 13 14 15`: “mean fluorescence intensity” 88.5 a.u.
Under “mean fluorescence intensity”, `2'F-ANA at 1 2 3 7 8 9 11 14` is recorded as 76.9 a.u.
Under “mean fluorescence intensity”, `2'F-ANA at 1 4 5 7 11 13 14` is recorded as 45.9 a.u.
For `2'F-ANA at 3 5 6 14`, “mean fluorescence intensity” read 49.3 a.u.

Single results of other studies
The fold induction of `PhoQ, residues 284 288 289 292 302 303 AGGLSV` is reported as 3.17 (PhoP, residues 12 14 15 18 19 LFHKL (Escherichia coli, UniProt P23836); Sort-seq, item: YFP reporter; E. coli; PhoQ-PhoP variant library, with: 10 µM Mg2+; reference: high Mg2+ state, higher = stronger signaling).

A few entries again (series 2):
For `CACATAAA`, the E-score was 0.332.
For `ACACGCCC`, the E-score was -0.17.
For `CCCCCCAG`, the E-score was -0.383.
